Published values pooled from the literature.
± marks the error that the study gave.
Melanocortin receptor 5: Melanocortin receptor 5 (Mus musculus, UniProt P41149)
UniProt P41149, sequence (whole entry, looked up): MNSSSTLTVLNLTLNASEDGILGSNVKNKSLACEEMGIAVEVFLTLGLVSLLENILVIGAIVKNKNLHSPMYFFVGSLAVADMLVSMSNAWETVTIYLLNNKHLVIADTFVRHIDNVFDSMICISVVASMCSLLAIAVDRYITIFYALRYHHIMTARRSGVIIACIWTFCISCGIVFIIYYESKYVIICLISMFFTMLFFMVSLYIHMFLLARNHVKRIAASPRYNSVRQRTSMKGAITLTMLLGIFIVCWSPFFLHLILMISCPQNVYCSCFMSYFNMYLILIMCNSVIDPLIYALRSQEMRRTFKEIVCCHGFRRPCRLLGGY
FFAR3: Free fatty acid receptor 3 (FFAR3, Homo sapiens, UniProt O14843)
UniProt O14843, sequence (whole entry, looked up): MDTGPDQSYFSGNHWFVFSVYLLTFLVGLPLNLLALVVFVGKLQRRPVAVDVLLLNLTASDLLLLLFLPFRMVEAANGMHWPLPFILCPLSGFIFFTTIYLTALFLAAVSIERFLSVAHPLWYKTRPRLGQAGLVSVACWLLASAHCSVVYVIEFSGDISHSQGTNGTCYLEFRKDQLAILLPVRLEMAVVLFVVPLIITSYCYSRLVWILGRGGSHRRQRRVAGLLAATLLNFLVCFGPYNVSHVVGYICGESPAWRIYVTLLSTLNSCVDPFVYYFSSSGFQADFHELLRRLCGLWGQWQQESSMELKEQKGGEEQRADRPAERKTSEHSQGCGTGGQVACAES
NR1H2 ligand-binding domain: Oxysterols receptor LXR-beta, ligand-binding domain (NR1H2, Homo sapiens, UniProt P55055)
UniProt P55055, sequence (whole entry, looked up): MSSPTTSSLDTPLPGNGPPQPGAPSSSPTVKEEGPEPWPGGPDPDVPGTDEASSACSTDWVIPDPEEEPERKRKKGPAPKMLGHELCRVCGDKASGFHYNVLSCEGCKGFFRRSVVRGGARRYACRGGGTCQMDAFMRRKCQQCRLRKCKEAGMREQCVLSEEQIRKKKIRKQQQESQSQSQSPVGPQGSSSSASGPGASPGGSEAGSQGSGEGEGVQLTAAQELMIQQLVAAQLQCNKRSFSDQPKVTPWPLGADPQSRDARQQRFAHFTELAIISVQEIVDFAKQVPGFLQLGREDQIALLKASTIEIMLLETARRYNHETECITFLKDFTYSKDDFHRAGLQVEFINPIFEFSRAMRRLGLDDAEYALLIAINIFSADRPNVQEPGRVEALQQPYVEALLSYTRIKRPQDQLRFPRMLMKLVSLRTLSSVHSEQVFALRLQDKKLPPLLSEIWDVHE
Thyrotropin-releasing hormone receptor: Thyrotropin-releasing hormone receptor (Mus musculus, UniProt P21761)
UniProt P21761, sequence (whole entry, looked up): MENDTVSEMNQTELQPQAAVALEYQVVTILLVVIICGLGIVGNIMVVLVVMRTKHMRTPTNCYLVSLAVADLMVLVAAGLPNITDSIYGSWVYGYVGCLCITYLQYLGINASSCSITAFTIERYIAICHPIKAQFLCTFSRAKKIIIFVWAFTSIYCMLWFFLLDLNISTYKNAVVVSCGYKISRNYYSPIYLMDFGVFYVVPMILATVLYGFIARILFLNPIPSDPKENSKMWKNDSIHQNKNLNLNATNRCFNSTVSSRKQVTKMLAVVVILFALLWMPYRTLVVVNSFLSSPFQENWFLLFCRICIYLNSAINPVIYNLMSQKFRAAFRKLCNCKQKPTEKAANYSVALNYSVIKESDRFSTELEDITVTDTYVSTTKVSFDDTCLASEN
PTH1R: Parathyroid hormone/parathyroid hormone-related peptide receptor (PTH1R, Homo sapiens, UniProt Q03431)
UniProt Q03431, sequence (whole entry, looked up): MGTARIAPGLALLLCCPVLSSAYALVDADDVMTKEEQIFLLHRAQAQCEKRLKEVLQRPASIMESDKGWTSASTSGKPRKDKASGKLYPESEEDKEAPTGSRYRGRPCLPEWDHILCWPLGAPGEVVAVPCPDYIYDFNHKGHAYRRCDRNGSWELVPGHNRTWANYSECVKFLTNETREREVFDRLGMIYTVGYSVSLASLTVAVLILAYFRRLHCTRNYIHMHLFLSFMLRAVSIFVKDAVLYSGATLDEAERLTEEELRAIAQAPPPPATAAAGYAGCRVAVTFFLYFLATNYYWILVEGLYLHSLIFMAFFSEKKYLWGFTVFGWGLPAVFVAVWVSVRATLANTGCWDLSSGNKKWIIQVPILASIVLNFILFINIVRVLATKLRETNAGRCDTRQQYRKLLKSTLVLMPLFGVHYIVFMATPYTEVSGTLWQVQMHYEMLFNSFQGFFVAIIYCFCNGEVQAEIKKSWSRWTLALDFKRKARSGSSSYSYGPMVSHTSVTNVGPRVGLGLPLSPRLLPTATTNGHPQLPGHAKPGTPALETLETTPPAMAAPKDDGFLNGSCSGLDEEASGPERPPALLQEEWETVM
UniProt Q60755, sequence (whole entry, looked up): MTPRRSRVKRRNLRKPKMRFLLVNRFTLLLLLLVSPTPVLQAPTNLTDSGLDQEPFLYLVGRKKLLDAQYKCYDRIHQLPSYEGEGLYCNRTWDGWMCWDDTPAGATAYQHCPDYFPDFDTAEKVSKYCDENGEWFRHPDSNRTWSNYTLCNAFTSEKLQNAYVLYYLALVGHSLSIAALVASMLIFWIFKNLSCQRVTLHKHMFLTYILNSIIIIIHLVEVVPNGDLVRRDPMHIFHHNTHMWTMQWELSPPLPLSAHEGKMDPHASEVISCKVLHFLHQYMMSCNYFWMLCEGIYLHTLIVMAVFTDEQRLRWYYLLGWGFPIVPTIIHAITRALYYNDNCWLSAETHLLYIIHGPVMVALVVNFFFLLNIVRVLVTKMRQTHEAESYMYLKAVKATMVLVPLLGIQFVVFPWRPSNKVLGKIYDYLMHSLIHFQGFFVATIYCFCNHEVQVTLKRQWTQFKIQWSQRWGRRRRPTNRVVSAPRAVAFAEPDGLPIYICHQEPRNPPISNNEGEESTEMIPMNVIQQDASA
UniProt P30969, sequence (whole entry, looked up): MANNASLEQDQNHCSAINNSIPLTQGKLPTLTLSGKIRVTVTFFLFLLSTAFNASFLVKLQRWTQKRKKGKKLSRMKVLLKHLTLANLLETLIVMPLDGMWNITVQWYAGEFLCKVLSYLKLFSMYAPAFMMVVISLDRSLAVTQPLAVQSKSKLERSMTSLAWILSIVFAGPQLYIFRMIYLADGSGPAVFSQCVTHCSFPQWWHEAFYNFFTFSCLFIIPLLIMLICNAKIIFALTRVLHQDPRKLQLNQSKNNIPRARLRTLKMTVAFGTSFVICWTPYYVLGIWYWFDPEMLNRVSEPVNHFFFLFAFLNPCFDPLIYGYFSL
UniProt Q9WTJ5, sequence (whole entry, looked up): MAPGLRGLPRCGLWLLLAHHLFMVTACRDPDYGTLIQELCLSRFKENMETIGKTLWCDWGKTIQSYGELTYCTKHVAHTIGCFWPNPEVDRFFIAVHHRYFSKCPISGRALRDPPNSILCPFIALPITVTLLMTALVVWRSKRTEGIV
UniProt O75762, sequence (whole entry, looked up): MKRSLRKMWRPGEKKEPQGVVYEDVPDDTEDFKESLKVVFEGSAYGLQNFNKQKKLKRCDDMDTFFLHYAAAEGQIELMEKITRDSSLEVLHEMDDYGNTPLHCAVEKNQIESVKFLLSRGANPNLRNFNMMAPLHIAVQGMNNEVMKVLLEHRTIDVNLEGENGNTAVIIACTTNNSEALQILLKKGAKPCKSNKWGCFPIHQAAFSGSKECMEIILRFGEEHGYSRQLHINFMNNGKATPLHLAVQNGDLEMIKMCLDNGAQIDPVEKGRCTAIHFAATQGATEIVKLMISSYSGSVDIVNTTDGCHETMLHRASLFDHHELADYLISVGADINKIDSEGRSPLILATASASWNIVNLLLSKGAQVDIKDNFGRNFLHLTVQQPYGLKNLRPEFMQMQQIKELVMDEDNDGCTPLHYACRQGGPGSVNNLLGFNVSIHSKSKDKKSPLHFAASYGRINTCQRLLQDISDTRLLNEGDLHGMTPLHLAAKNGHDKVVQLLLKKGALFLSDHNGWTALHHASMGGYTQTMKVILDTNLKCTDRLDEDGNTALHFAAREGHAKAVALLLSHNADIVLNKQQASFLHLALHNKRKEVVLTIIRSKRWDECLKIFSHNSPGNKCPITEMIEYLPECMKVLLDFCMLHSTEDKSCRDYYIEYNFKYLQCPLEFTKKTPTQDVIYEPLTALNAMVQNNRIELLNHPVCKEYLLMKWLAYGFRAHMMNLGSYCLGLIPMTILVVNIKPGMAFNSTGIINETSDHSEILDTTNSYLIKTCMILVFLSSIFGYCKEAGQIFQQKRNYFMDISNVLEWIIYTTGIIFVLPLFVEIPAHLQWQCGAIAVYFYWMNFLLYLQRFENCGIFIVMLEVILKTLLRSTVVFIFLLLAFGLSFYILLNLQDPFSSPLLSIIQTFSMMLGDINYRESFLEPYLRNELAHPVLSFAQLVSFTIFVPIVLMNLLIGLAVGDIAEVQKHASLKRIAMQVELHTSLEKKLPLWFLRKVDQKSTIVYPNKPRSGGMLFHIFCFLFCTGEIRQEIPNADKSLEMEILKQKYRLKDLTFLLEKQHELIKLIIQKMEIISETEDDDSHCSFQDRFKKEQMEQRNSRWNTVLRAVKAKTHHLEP
UniProt P41586, sequence (whole entry, looked up): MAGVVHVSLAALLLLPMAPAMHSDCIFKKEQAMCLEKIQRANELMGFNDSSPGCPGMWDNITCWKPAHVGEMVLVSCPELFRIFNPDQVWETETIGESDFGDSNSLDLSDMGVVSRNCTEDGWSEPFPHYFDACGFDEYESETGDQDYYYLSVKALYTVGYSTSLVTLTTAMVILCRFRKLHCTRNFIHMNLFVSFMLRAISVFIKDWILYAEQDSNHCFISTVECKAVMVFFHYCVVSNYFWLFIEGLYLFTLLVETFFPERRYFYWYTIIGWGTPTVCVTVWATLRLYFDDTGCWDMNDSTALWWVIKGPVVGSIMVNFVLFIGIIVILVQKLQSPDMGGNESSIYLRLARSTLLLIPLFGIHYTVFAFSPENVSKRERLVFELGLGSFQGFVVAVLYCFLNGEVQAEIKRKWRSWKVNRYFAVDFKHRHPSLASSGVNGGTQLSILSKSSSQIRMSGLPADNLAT

C[C@H](NC(=O)[C@H](CC(N)=O)NC(=O)[C@H](Cc1c[nH]c2ccccc12)NC(=O)[C@H](CCCNC(=N)N)NC(=O)[C@@H](Cc1ccccc1)NC(=O)[C@H](Cc1c[nH]cn1)NC(=O)[C@H](CCCN=[N+]=[N-])NC(=O)[C@@H](N)Cc1ccc(O)cc1)C(=O)N[C@@H](Cc1ccccc1)C(=O)N[C@@H](CCCN=[N+]=[N-])C(=O)N[C@@H](Cc1ccc(O)cc1)C(N)=O
EC50 (Melanocortin receptor 5; agonist): 0.036 ± 0.007 µM

NC(=O)CNC(=O)[C@@H]1CCCN1C(=O)[C@H](Cc1ccc(O)cc1)NC(=O)[C@H](Cc1c[nH]c2ccccc12)NC(=O)[C@@H](Cc1c[nH]c2ccccc12)NC(=O)[C@H](Cc1c[nH]cn1)NC(=O)[C@H](CO)NC(=O)[C@H](Cc1c[nH]c2ccccc12)NC(=O)[C@H](Cc1c[nH]cn1)NC(=O)[C@@H]1CCC(=O)N1
EC50 (Gonadotropin-releasing hormone receptor (Rattus norvegicus, UniProt P30969); inositol phosphate accumulation, agonist; WPE-1-NB26-3 expressing Gonadotropin-releasing hormone receptor; 60 min, 37 °C, with: 10 mM LiCl): 0.0039 ± 0.0005 µM

CC[C@H](C)[C@H](NC(=O)[C@@H]1CCCN1C(=O)CNC(=O)[C@H](Cc1ccccc1)NC(=O)[C@H](CC(N)=O)NC(=O)[C@H](CC(N)=O)NC(=O)[C@H](CO)NC(=O)[C@H](CO)NC(=O)[C@H](Cc1c[nH]cn1)NC(=O)[C@@H](NC(=O)[C@H](CC(C)C)NC(=O)[C@H](Cc1ccccc1)NC(=O)[C@H](CC(N)=O)NC(=O)[C@H](C)NC(=O)[C@H](CC(C)C)NC(=O)[C@H](CCCNC(=N)N)NC(=O)[C@H](CCC(N)=O)NC(=O)[C@@H](NC(=O)[C@H](C)NC(=O)[C@@H]1CSSC[C@H](NC(=O)[C@@H](N)CCCCN)C(=O)N[C@@H](CC(N)=O)C(=O)N[C@@H]([C@@H](C)O)C(=O)N[C@@H](C)C(=O)N[C@@H]([C@@H](C)O)C(=O)N1)[C@@H](C)O)C(C)C)C(=O)N[C@@H](CC(C)C)C(=O)N1CCC[C@H]1C(=O)N1CCC[C@H]1C(=O)N[C@H](C(=O)N[C@@H](CC(N)=O)C(=O)N[C@H](C(=O)NCC(=O)N[C@@H](CO)C(=O)N[C@@H](CC(N)=O)C(=O)N[C@H](C(=O)N[C@@H](Cc1ccc(O)cc1)C(N)=O)[C@@H](C)O)C(C)C)[C@@H](C)O
EC50 (Calcr/Ramp1 (Mus musculus, UniProt Q60755+Q9WTJ5); cAMP production, agonist; COS-7, transfected; 15 min, 37 °C, with: IBMX 1 mM): 0.000562 µM

CC(C)CC(=O)O
EC50 (FFAR3; agonist): 741 µM

CN(C(=O)c1cccs1)c1ccc(C(O)(C(F)(F)F)C(F)(F)F)cc1
EC50 (NR1H2 ligand-binding domain; agonist; concentration not given): 0.34 ± 0.02 µM

BzATP
EC50 (P2X purinoceptor 7 (P2rx7, Rattus norvegicus, UniProt Q64663, Q143A); ion current, agonist, two-electrode voltage clamp; Xenopus laevis oocytes; Q143A mutant): 6 ± 2 µM

N=C(N)NCCC[C@H](NC(=O)[C@H](Cc1ccccc1)NC(=O)[C@@H](N)CO)C(=O)N[C@@H](CC(N)=O)C(=O)NCC(N)=O
EC50 (NPSR1 (Homo sapiens, UniProt Q6W5P4, N107I); cAMP, agonist, TR-FRET): 3.06 µM

COc1cccc(S(=O)(=O)N(C)c2ccc(C(O)(C(F)(F)F)C(F)(F)F)cc2)c1
EC50 (NR1H2 ligand-binding domain; agonist; concentration not given): 1.25 ± 0.01 µM

CSCC[C@H](NC(=O)[C@H](CC(C)C)NC(=O)[C@H](Cc1cnc[nH]1)NC(=O)CNC(=O)[C@@H](NC(=O)[C@H](C)NC(=O)[C@H](Cc1c[nH]c2ccccc12)NC(=O)[C@H](CCC(N)=O)NC(=O)[C@H](CC(N)=O)NC(=O)CNC(=O)[C@H](CC(C)C)NC(=O)[C@H](CCCN=C(N)N)NC(=O)[C@H](CCC(N)=O)NC(=O)[C@@H]1CCC(=O)N1)C(C)C)C(N)=O
EC50 (ERBB3 (Homo sapiens, UniProt P21860); receptor phosphorylation, inhibitor, Western blot; H441; 3 min): 0.0065 ± 0.001 µM

CCn1cnc(C[C@H](NC(=O)c2cnccn2)C(=O)N2CCC[C@H]2C(N)=O)c1
EC50 (Thyrotropin-releasing hormone receptor; calcium signal, agonist, fluorescence): 10.5 µM

CC[C@H](C)[C@H](NC(=O)CNC(=O)[C@H](CC(=O)O)NC(=O)[C@H](CO)NC(=O)Cc1cccnc1)C(=O)N[C@@H](Cc1ccccc1)C(=O)N[C@H](C(=O)N[C@@H](CC(=O)O)C(=O)N[C@@H](CO)C(=O)N[C@@H](Cc1ccc(O)cc1)C(=O)N[C@@H](CO)C(=O)N[C@@H](CCCNC(=N)N)C(=O)N[C@@H](Cc1ccc(O)cc1)C(=O)N[C@@H](CCCNC(=N)N)C(=O)N[C@@H](CCCCN)C(=O)N[C@@H](CCC(N)=O)C(=O)N[C@@H](CCSC)C(=O)N[C@@H](C)C(=O)N[C@H](C(=O)N[C@@H](CCCCN)C(=O)N[C@@H](CCCCN)C(=O)N[C@@H](C)C(=O)N[C@@H](CC(C)C)C(=O)N[C@@H](C)C(=O)N[C@@H](C)C(=O)N[C@H](C(=O)N[C@@H](CC(C)C)C(=O)NCC(=O)N[C@@H](CCCCN)C(=O)N[C@@H](CCCNC(=N)N)C(=O)N[C@@H](Cc1ccc(O)cc1)C(=O)N[C@@H](CCCCN)C(=O)N[C@@H](CCC(N)=O)C(=O)N[C@@H](CCCNC(=N)N)C(=O)N[C@H](C(=O)N[C@@H](CCCCN)C(=O)N[C@@H](CC(N)=O)C(=O)N[C@@H](CCCCN)C(N)=O)C(C)C)C(C)C)C(C)C)[C@@H](C)O
EC50 (ADCYAP1R1 (Homo sapiens, UniProt P41586); cAMP, agonist, radiometric): 0.01 µM

CC(=O)N[C@H](C(=O)N[C@@H](C)C(=O)N[C@@H](Cc1ccc(O)cc1)C(=O)N[C@H]1CSSC[C@@H](C(=O)N[C@@H](Cc2ccc(O)cc2)C(=O)N[C@@H](C)C(=O)N[C@@H](CCCNC(=N)N)C(N)=O)NC(=O)[C@H](Cc2ccccc2)NC(=O)[C@H](C)NC(=O)[C@H](CC(N)=O)NC(=O)[C@H](Cc2ccccc2)NC(=O)[C@H](Cc2ccccc2)NC(=O)[C@H](CCCNC(=N)N)NC1=O)[C@@H](C)O
EC50 (Melanocortin receptor 5; cAMP reporter gene, agonist; HEK293): > 100 µM

CC(C)COC1O[C@@H]2O[C@@]3(C)CC[C@H]4[C@H](C)CCC([C@H]1C)[C@@]24OO3 (stereo partly drawn)
EC50 (ABCB1 (Homo sapiens, UniProt P08183); transport inhibition, inhibitor, flow cytometry; CEM/ADR5000 leukaemia; with: calcein-AM 1 µM): 61.8 ± 9.62 µM

C=C1CC[C@H](OCCCNC(=O)CCOCCOCCOCCOCCOCCOCCOCCOCCOCCOCCOCCOCCOCCOCCOCCOCCOCCOCCOCCOCCOCCOCCOCCOCCOCCOCCOCCOCCOCCOCCOCCOCCOCCOCCOCCOCCNC(=O)CCN2C(=O)CC(SC[C@H](NC(=O)[C@H](Cc3ccccc3)NC(=O)[C@H](CC(N)=O)NC(=O)[C@H](Cc3c[nH]cn3)NC(=O)[C@@H](NC(=O)[C@H](CC(=O)O)NC(=O)[C@H](CCC(N)=O)NC(=O)[C@H](CC(C)C)NC(=O)[C@H](CCCCN)NC(=O)[C@H](CCCCN)NC(=O)[C@H](CCCNC(=N)N)NC(=O)[C@H](CC(C)C)NC(=O)[C@H](Cc3c[nH]c4ccccc34)NC(=O)[C@H](CCC(=O)O)NC(=O)[C@@H](NC(=O)[C@H](CCCNC(=N)N)NC(=O)[C@H](CCC(=O)O)NC(=O)[C@H](CCSC)NC(=O)[C@H](CO)NC(=O)[C@H](CC(N)=O)NC(=O)[C@H](CC(C)C)NC(=O)[C@H](Cc3c[nH]cn3)NC(=O)[C@H](CCCCN)NC(=O)CNC(=O)[C@H](CC(C)C)NC(=O)[C@H](CC(N)=O)NC(=O)[C@H](Cc3c[nH]cn3)NC(=O)[C@H](CCSC)NC(=O)[C@H](CC(C)C)NC(=O)[C@H](CCC(N)=O)NC(=O)[C@@H](NC(=O)[C@H](CCC(=O)O)NC(=O)[C@H](CO)NC(=O)[C@@H](NC(=O)[C@@H](N)CO)C(C)C)[C@@H](C)CC)C(C)C)C(C)C)C(N)=O)C2=O)C/C1=C/C=C1\CCC[C@]2(C)[C@@H]([C@H](C)CCCC(C)(C)O)CC[C@@H]12 (stereo partly drawn)
EC50 (PTH1R; calcium signal, agonist, fluorescence): 0.0273 µM

N#C/C(=C\c1cccc(-c2ccncc2)c1)C(N)=O
EC50 (RPS6KA3 (Homo sapiens, UniProt P51812); inhibitor, Western blot; transfected COS-7; with: PMA): ~20 µM

CCOc1ccccc1-c1nnc2n1N=C(c1ccc(N3CCCCC3)cc1)CS2
EC50 (CXCR4 (Homo sapiens, UniProt P61073); β-arrestin recruitment, agonist): > 10 µM

O=C(NC[C@H](Cc1ccc(F)cc1)N1CCC(O)(C(F)(F)F)CC1)C1(c2ccc(Cl)cc2)CCCC1
EC50 (TRPA1 (Homo sapiens, UniProt O75762); calcium signal, agonist): 2.2 µM

C#CC(=O)O
EC50 (FFAR3; agonist): > 1000 µM

CC[C@H](C)[C@H](NC(=O)[C@H](CCC(=O)O)NC(=O)[C@H](CO)NC(=O)[C@@H](NC(=O)[C@@H](N)CO)C(C)C)C(=O)N[C@@H](CCC(N)=O)C(=O)N[C@@H](CC(C)C)C(=O)N[C@@H](CCSC)C(=O)N[C@@H](Cc1c[nH]cn1)C(=O)N[C@@H](CC(N)=O)C(=O)N[C@@H](CC(C)C)C(=O)NCC(=O)N[C@@H](CCCCN)C(=O)N[C@@H](Cc1c[nH]cn1)C(=O)N[C@@H](CC(C)C)C(=O)N[C@@H](CC(N)=O)C(=O)N[C@@H](CO)C(=O)N[C@@H](CCSC)C(=O)N[C@@H](CCC(=O)O)C(=O)N[C@@H](CCCNC(=N)N)C(=O)N[C@H](C(=O)N[C@@H](CCC(=O)O)C(=O)N[C@@H](Cc1c[nH]c2ccccc12)C(=O)N[C@@H](CC(C)C)C(=O)N[C@@H](CCCNC(=N)N)C(=O)N[C@@H](CCCCN)C(=O)N[C@@H](CCCCN)C(=O)N[C@@H](CC(C)C)C(=O)N[C@@H](CCC(N)=O)C(=O)N[C@@H](CC(=O)O)C(=O)N[C@H](C(=O)N[C@@H](Cc1c[nH]cn1)C(=O)N[C@@H](CC(N)=O)C(=O)N[C@@H](Cc1ccccc1)C(=O)N[C@H](C(=O)N[C@@H](C)C(=O)N[C@@H](CC(C)C)C(=O)O)C(C)C)C(C)C)C(C)C
EC50 (PTH1R; reporter gene, agonist, luciferase): 0.000933 µM

CSCC(=O)O
EC50 (FFAR3; agonist): 617 µM

CC(C)n1cnc(C[C@H](NC(=O)c2cnccn2)C(=O)N2CCC[C@H]2C(N)=O)c1
EC50 (Thyrotropin-releasing hormone receptor; calcium signal, agonist, fluorescence): 0.001 µM

CCC(=O)O
EC50 (FFAR3; agonist): 107 µM

CN(C(=O)c1ccc(F)cc1)c1ccc(C(O)(C(F)(F)F)C(F)(F)F)cc1
EC50 (NR1H2 ligand-binding domain; agonist; concentration not given): 1.72 ± 0.04 µM

CSCC[C@H](NC(=O)[C@H](CO)NC(=O)[C@H](CC(N)=O)NC(=O)[C@H](CC(C)C)NC(=O)[C@H](CO)NC(=O)[C@H](CCCCN)NC(=O)CNC(=O)[C@H](CCCCN)NC(=O)[C@H](CC(=O)O)NC(=O)[C@H](Cc1c[nH]cn1)NC(=O)[C@H](CC(C)C)NC(=O)[C@H](CC(C)C)NC(=O)[C@H](CCC(N)=O)NC(=O)[C@H](Cc1c[nH]cn1)NC(=O)[C@H](CCC(=O)O)NC(=O)[C@H](CO)NC(=O)[C@@H](NC(=O)[C@H](C)N)C(C)C)C(=O)N[C@@H](CCC(=O)O)C(=O)N[C@@H](CCCNC(=N)N)C(=O)N[C@H](C(=O)N[C@@H](CCC(=O)O)C(=O)N[C@@H](Cc1c[nH]c2ccccc12)C(=O)N[C@@H](CC(C)C)C(=O)N[C@@H](CCCNC(=N)N)C(=O)N[C@@H](CCCCN)C(=O)N[C@@H](CCCCN)C(=O)N[C@@H](CC(C)C)C(=O)N[C@@H](CCC(N)=O)C(=O)N[C@@H](CC(=O)O)C(=O)N[C@H](C(=O)N[C@@H](Cc1c[nH]cn1)C(=O)N[C@@H](CC(N)=O)C(=O)N[C@@H](Cc1ccccc1)C(=O)N[C@@H](CCCCNC(=O)c1ccc2c(c1)C1(OC2=O)c2ccc(N(C)C)cc2Oc2cc(N(C)C)ccc21)C(N)=O)C(C)C)C(C)C
EC50 (PTH1R; cAMP formation, agonist, GloSensor; HEK293 GP2.3; 15 min): 0.00039 ± 0.0001 µM

A few entries again:
CN(C(=O)c1cccs1)c1ccc(C(O)(C(F)(F)F)C(F)(F)F)cc1
EC50 (NR1H2 ligand-binding domain; agonist; concentration not given): 0.34 ± 0.02 µM

BzATP
EC50 (P2X purinoceptor 7 (P2rx7, Rattus norvegicus, UniProt Q64663, Q143A); ion current, agonist, two-electrode voltage clamp; Xenopus laevis oocytes; Q143A mutant): 6 ± 2 µM

N=C(N)NCCC[C@H](NC(=O)[C@H](Cc1ccccc1)NC(=O)[C@@H](N)CO)C(=O)N[C@@H](CC(N)=O)C(=O)NCC(N)=O
EC50 (NPSR1 (Homo sapiens, UniProt Q6W5P4, N107I); cAMP, agonist, TR-FRET): 3.06 µM
